Assay results from different studies.
Protocols differ between the studies behind these lines. Several values in a cell are separate wells, animals, samples, runs or records. ± marks the error that the study gave.

Structure (SMILES) | target or system | assay | test system | conditions | how to read | quantity | result
COC(=O)/C=C/c1ccc(O)c(O)c1 | HaCaT | MTT |  | 24 h, 10% FBS |  | subcytotoxic concentration | 50 µM
CC[C@H](C)[C@H](NC(=O)[C@H](Cc1c[nH]c2ccccc12)NC(=O)[C@H](CCCCN)NC(=O)[C@H](CC(C)C)NC(=O)[C@@H](NC(=O)[C@@H](NC(=O)CNC(=O)[C@H](CCCCN)NC(=O)[C@H](Cc1c[nH]cn1)NC(=O)[C@H](CCCCN)NC(=O)[C@H](Cc1c[nH]c2ccccc12)NC(=O)[C@H](C)NC(=O)[C@H](CC(C)C)NC(=O)[C@H](CO)NC(=O)[C@@H](NC(=O)[C@H](Cc1ccc(O)cc1)NC(=O)[C@@H](N)CCCCN)C(C)C)[C@@H](C)O)[C@@H](C)CC)C(=O)N[C@@H](CC(N)=O)C(=O)N[C@@H](C)C(=O)NCC(=O)N[C@@H](CCC(N)=O)C(=O)N[C@@H](CO)C(=O)N[C@@H](Cc1ccccc1)C(=O)N[C@@H](CCC(=O)O)C(=O)N[C@@H](Cc1c[nH]c2ccccc12)C(=O)N[C@H](C(=O)N[C@@H](Cc1ccc(O)cc1)C(=O)N[C@@H](CCCCN)C(=O)N[C@@H](CCC(N)=O)C(=O)N[C@H](C(=O)N[C@@H](CCCCN)C(=O)N[C@@H](CCCCN)C(=O)N[C@@H](CC(C)C)C(=O)N[C@@H](Cc1c[nH]c2ccccc12)C(=O)N[C@@H](C)C(N)=O)[C@@H](C)CC)[C@@H](C)CC | human erythrocytes | hemolysis |  | pH 7.2 | reference: water complete hemolysis | HD50 | 200 µg/mL
CC(=O)c1c(O)c(C)c(O)c2c1OC1=CC(=O)C(=C(C)NNc3ccnc4cc(Cl)ccc34)C(=O)C12C (centres unmarked) | L6 rat skeletal myoblasts | cytotoxicity, Alamar Blue |  |  |  | IC50 | 9.75 µM
O[Si](CCCN1CCCCC1)(c1ccc(F)cc1)C1CCCCC1 (centres unmarked) | BaF3 | cell growth or viability, ATP luminescence |  | 72 h |  | IC50 | 9.77 µM
O=C1NC2(CC2)COc2ncc(F)cc2[C@H]2COCCN2c2ccn3ncc1c3n2 |  |  | Sprague-Dawley rat, male, brain | oral, 20 mg/kg/day, 4 weeks, end of treatment |  | organ-to-body weight ratio | 0.502 ± 0.052%
CN(C)CCCNC(=O)[C@@H]1NC(=O)[C@@H]2Cc3ccc(cc3)Oc3cc4cc(c3O)-c3ccc5c(c[nH]c5c3)C[C@@H](NC(=O)C(NC(=O)CCCCCN)c3ccc(O)cc3)C(=O)N[C@H](c3ccc(O)cc3)C(=O)N[C@H]4C(=O)N[C@@H](C(=O)N2C)c2ccc(cc2)Oc2cc1ccc2O (some centres unmarked) | human red blood cells |  |  | 4 µg/mL, 1 h, 37 °C, 1% DMSO |  | hemolysis | 0.47%
COc1ccc(C[C@@H]2c3cc(Oc4cc(C[C@H]5c6cc(OC)c(OC)cc6CCN5C)ccc4O)c(OC)cc3CCN2C)cc1 | A549-hACE2 | cytotoxicity |  | 96 h |  | CC50 | 45.4 ± 4.32 µM
CNC(=O)C[C@H](Cc1ccncc1)NC(=O)[C@@H](Cc1cccc(Br)c1)NC(=O)[C@@H](N)Cc1ccsc1 | Huh-7-ACE2 | CellTiter-Glo |  | 0.00305 µM, 48 h, unit not given | reference: DMSO | viability | 0.96 and 0.873 and 0.965
CC[C@H](C)[C@H](NC(=O)[C@H](C)NC(=O)[C@H](CCCCN)NC(=O)[C@H](CC(C)C)NC(=O)[C@@H](N)Cc1ccccc1)C(=O)N[C@@H](CCCCN)C(=O)N[C@@H](CCCCN)C(=O)N[C@@H](Cc1ccccc1)C(=O)NCC(=O)N[C@@H](CCCCN)C(=O)N[C@@H](CCC(=O)O)C(=O)N[C@@H](Cc1ccccc1)C(=O)N[C@@H](CCCCN)C(=O)N[C@@H](CCCCN)C(=O)N[C@H](C(=O)NCC(=O)N[C@@H](C)C(=O)N[C@@H](CCCCN)C(=O)N[C@@H](CC(C)C)C(=O)N[C@@H](CCCCN)C(=O)O)[C@@H](C)CC | HeLa | MTT |  | 8 mg/L | reference: untreated | cell growth | 98.3% and 92.9% and 92.8%
CC[C@H](C)[C@H](NC(=O)[C@H](Cc1c[nH]c2ccccc12)NC(=O)[C@H](Cc1ccc(O)cc1)NC(=O)[C@H](CCCCN)NC(=O)[C@H](CC(C)C)NC(=O)[C@@H](N)CO)C(=O)N[C@@H](CCCNC(=N)N)C(=O)N[C@@H](Cc1ccc(O)cc1)C(=O)N[C@@H](CCCCN)C(=O)N[C@@H](CCCNC(=N)N)C(=O)N[C@@H](CCC(N)=O)C(=O)NCC(=O)N[C@@H](C)C(=O)N[C@@H](C)C(=O)N[C@@H](CCCNC(=N)N)C(=O)N[C@@H](Cc1ccccc1)C(N)=O | rat erythrocytes |  |  | 200 µM, 60 min, 37 °C |  | hemolysis | 5.7 ± 1.4%
CNC(=O)CC[C@H](Cc1ccccc1)NC(=O)[C@@H](Cc1ccc(Cl)cc1Cl)NC(=O)[C@H](N)Cc1ccccc1[N+](=O)[O-] | Huh-7-ACE2 | CellTiter-Glo |  | 0.000191 µM, 48 h, unit not given | reference: DMSO | viability | 0.964 and 1.05 and 1.07

For quick reference, copied from above:
Structure (SMILES) | target or system | assay | test system | conditions | how to read | quantity | result
CNC(=O)CC[C@H](Cc1ccccc1)NC(=O)[C@@H](Cc1ccc(Cl)cc1Cl)NC(=O)[C@H](N)Cc1ccccc1[N+](=O)[O-] | Huh-7-ACE2 | CellTiter-Glo |  | 0.000191 µM, 48 h, unit not given | reference: DMSO | viability | 0.964 and 1.05 and 1.07
CNC(=O)C[C@H](Cc1ccncc1)NC(=O)[C@@H](Cc1cccc(Br)c1)NC(=O)[C@@H](N)Cc1ccsc1 | Huh-7-ACE2 | CellTiter-Glo |  | 0.00305 µM, 48 h, unit not given | reference: DMSO | viability | 0.96 and 0.873 and 0.965
